Measurements gathered from unrelated publications.
Compare with care: the assays were run in different laboratories.
Cell line: COLO 205

SMILES | test | conditions | how to read | measurement | value
COc1ccc2c(c1)/C(=N\Nc1nnc3n1N=C(c1ccccc1)CS3)C(=O)N2 | cell growth or viability, SRB | 10 µM | – | inhibition | 17%
COc1cc(CNC(=O)C[C@H](C)CCC=C(C)C)ccc1OCc1cn(-c2cccc(C(F)(F)F)c2)nn1 | SRB | 10 µM, 48 h | – | growth percent | 74.2%
CC(=O)OC[C@H]1O[C@@H](Sc2sc(C(=O)c3ccc(Br)cc3)c(N)c2-c2nc3ccccc3s2)[C@H](OC(C)=O)[C@@H](OC(C)=O)[C@H]1OC(C)=O | SRB | 10 µM, 48 h | reference: untreated | growth | 94.1%
COc1cc(CNC(=O)C[C@H](C)CCC=C(C)C)ccc1OCc1cn(-c2ccccc2)nn1 | SRB | 10 µM, 48 h | – | growth percent | 99%
CC(=O)OC[C@H]1O[C@@H](Sc2sc(C(=O)c3ccc(C)cc3)c(N)c2-c2nc3ccccc3s2)[C@H](OC(C)=O)[C@@H](OC(C)=O)[C@@H]1OC(C)=O | SRB | 10 µM, 48 h | reference: untreated | growth | 82.1%
CCOC(=O)C1=C(C)NC(=O)N[C@@H]1/C=C/c1ccc(OC)cc1 | cell growth or viability, MTT | 24 h | – | IC50 | 14.7 µM
Cn1c(SCC(=O)N2CCC(=C3c4ncccc4CCc4cc(Cl)cc(Br)c43)CC2)nnc1-c1ccccc1 | cell growth or viability, SRB | – | – | IC50 | > 120 µM
CCC(=C(c1ccc(Cl)cc1)c1ccc(OCCCN(C)C)cc1)c1ccc(OC)cc1 | cell growth or viability, SRB | – | – | GI50 | 0.92 µM
Clc1cc(Br)c2c(c1)CCc1cccnc1C2=C1CCNCC1 | cell growth or viability, SRB | – | – | IC50 | 60 µM
CC/C=C\C/C=C\C/C=C\C/C=C\C/C=C\C/C=C\CCC(=O)Nc1ccn(C2OC(CO)C(O)C2(F)F)c(=O)n1 (centres unmarked) | cell growth or viability, SRB | – | – | GI50 | 0.143 µM
COc1cc(CNC(=O)C[C@H](C)CCC=C(C)C)ccc1OCc1cn(-c2ccccc2F)nn1 | SRB | 10 µM, 48 h | – | growth percent | 112%
O=C(CSc1nnc(-c2ccccc2)o1)N1CCC(=C2c3ncccc3CCc3cc(Cl)cc(Br)c32)CC1 | cell growth or viability, SRB | – | – | IC50 | > 120 µM
COc1cc(CNC(=O)C[C@H](C)CCC=C(C)C)ccc1OCc1cn(-c2ccc(Cl)cc2Cl)nn1 | SRB | 10 µM, 48 h | – | growth percent | 105%
O=C(CSc1nc(-c2ccccc2)n[nH]1)N1CCC(=C2c3ncccc3CCc3cc(Cl)cc(Br)c32)CC1 | cell growth or viability, SRB | – | – | IC50 | > 120 µM
